Published values of several laboratories.
Each line is one published result; not all experiments were run side by side.
Target: Calcium/calmodulin-dependent protein kinase type II subunit gamma (CAMK2G, Homo sapiens, UniProt Q13555)

COc1cc(Nc2nc(C)cc(-c3cnn4nc(OC)ccc34)n2)cc(C(F)(F)F)c1 — remaining activity (inhibitor; 1 µM; reference: control): 90%
CN1CCN(Cc2ccc(-c3ccc(CO[C@H]4CCC[C@@H]4NC(=O)c4cc(-c5cnn(C)c5)cnc4N)cc3)cc2)CC1 — inhibition (enzyme activity, inhibitor; 0.1 µM): 6%
COc1c(OCCCN2CCOCC2)ccc2c1N=C(NC(=O)c1cnc(N)nc1)N1CCN=C21 — remaining activity (kinase activity, inhibitor; 1 µM; reference: untreated control): 93%
O=C=[N][Ru-4]123([n]4c5ccc(O)cc5c5c6c(c7cc(F)c[n+]1c7c54)C(=O)NC6=O)[S+]1CC[S+]2CC[S+]3CC1 (stereo not drawn) — remaining activity (enzyme activity; 100 nM, human enzyme, with: 10 µM ATP; reference: untreated): 29%
O=C(Cc1ccc(OCc2ccccc2)cc1)NC1(C(=O)O)CCN(C(=O)c2ccc(-c3cccc(Cl)c3)cc2)CC1 — activity vs control (enzyme activity, inhibitor; 10 µM): 96%
CCN1CCN(Cc2ccc(C(=O)Nc3ccc(C)c(NCc4cnc5[nH]ccc5c4OC)c3)cc2C(F)(F)F)CC1 — remaining binding (binding, competition with immobilised ligand; 1 µM): 100%
CC(C)=CC1OC(C)(C)C2C=C3C(=O)C(Cl)=CC(O)C3C3C(O)C4OC4C(=O)C132 (stereo not drawn) — remaining binding (cell-free assay, competition with immobilised ligand; 10 µM): 94%
C=CC(=O)N1CCCC(n2c(=O)c3ncccc3n(Cc3ccc(Oc4ccccc4)cc3)c2=O)C1 (stereo not drawn) — remaining binding (cell-free assay, competition with immobilised ligand; 1 µM): 100%
C=CC(=O)Nc1cccc(-c2cnc3[nH]cc(C(=O)NC(C)(C)C)c3n2)c1 — inhibition (enzyme activity, inhibitor; 0.1 µM): -1%
Cc1cccc(O[C@H]2CCC[C@@H](C(C)CNCc3ccncc3)C2)c1 (relative stereo) — inhibition (cell-free assay; 10 µM): -14%
NC(=O)C[C@H]1CCc2sc3ncnc(O[C@H]4CC[C@H](N5CCOCC5)CC4)c3c21 — inhibition (enzyme activity, inhibitor; 10 µM): -5%
CNC(=O)C[C@H](Cc1ccc(C#N)cc1)NC(=O)c1cc(-c2ccc(CN[C@H](C)c3ccc(C)cc3)o2)ccc1Cl — activity vs control (enzyme activity, inhibitor; 1 µM): 93%
Nc1ncc(-c2cc(-c3cnn(CC(F)(F)F)c3)ncc2F)nc1C(=O)NC1CNCC(F)C1 (stereo not drawn) — remaining activity (enzyme activity; 1 µM; reference: DMSO control): 107%
C=CC(=O)N1CCc2ccc(-n3c(=O)ccc4cnc5ccc(-c6cnn(C)c6)cc5c43)cc21 — remaining binding (KINOMEscan; 1 µM; reference: DMSO control): 100%
Nc1ncc2c(n1)-c1c([nH]c3ccc(C4=CCOCC4)cc13)CCC2 — remaining binding (binding, competition with immobilised ligand; 1 µM): 100%

A few entries again:
C=CC(=O)N1CCCC(n2c(=O)c3ncccc3n(Cc3ccc(Oc4ccccc4)cc3)c2=O)C1 (stereo not drawn) — remaining binding (cell-free assay, competition with immobilised ligand; 1 µM): 100%
C=CC(=O)Nc1cccc(-c2cnc3[nH]cc(C(=O)NC(C)(C)C)c3n2)c1 — inhibition (enzyme activity, inhibitor; 0.1 µM): -1%
